Experimental data of several laboratories.
A part holds a random share of what one study measured. Substitutions count along the parent as printed.

Series 1 — target: FOSB, bZIP domain (human); method: DHFR protein complementation; sample: yeast; baseline: wild-type JUN-FOS pair; direction: higher = stronger binding
Notes: single substitutions, most at no-binding floor
Parent: JUN, bZIP domain (human); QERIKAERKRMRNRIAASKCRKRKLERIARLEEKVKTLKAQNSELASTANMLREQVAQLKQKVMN; partner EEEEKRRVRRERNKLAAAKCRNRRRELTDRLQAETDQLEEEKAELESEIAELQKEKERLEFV
The binding fitness of `Q41N` is reported as -0.322 natural log.
`A29N` gave a binding fitness of -0.155 natural log.
`I28Q` gave a binding fitness of -0.0955 natural log.
With `A46G` the binding fitness was -0.378 natural log.
For `V35H`, the binding fitness was -0.464 natural log.
`E32A` gave a binding fitness of 0.175 natural log.
The binding fitness of `Q41E` is reported as -0.1 natural log.
The binding fitness of `E32N` is reported as -0.369 natural log.
With `V35Y` the binding fitness was -0.374 natural log.
`I28Y` has a binding fitness of -0.222 natural log.
`I28H` has a binding fitness of -0.117 natural log.
For `S47Q`, the binding fitness was -0.0644 natural log.
`I28S` gave a binding fitness of -0.304 natural log.
For `V35E`, the binding fitness was -1.07 natural log.
The binding fitness of `A46H` is reported as -0.128 natural log.
For `A57V`, the binding fitness was -0.0564 natural log.
For `E32D`, the binding fitness was -0.177 natural log.
`L52M` has a binding fitness of -0.322 natural log.
`N42W` has a binding fitness of -1.02 natural log.
`L45H` gave a binding fitness of -0.965 natural log.
The binding fitness of `K39H` is reported as -0.305 natural log.

Series 2 — method: RNA Bind-n-Seq; molecule type: RNA; sample: in vitro; concentration: 365 nM; baseline: no-protein control; direction: higher = stronger binding
Target: RNA binding protein fox-1 homolog 2, RRM domain, GST-SBP tag (RBFOX2, Homo sapiens, UniProt O43251-10, residues 100-194)
Notes: natural RNA segment, single round, ends assumed
Shared flanks, not repeated: GGGAGUUCUACAGUCCGACGAUC … UGGAAUUCUCGGGUGCCAA
Construct (chain): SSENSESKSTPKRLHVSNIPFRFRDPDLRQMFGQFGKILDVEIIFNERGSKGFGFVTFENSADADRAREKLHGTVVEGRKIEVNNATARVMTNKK
`CUCCCGUUUGUACCUCAACAGAUGCAAAUUCCCCUCUCGUUCACCCUACGCCCUUUUUGGUACACUUAGAAGUUUUCCUUUUCCAUCAAUGGUACUGUUUCUUAGUGUUU`: “RBNS enrichment (R)” 0.706.
Under “RBNS enrichment (R)”, `UGUUUUGUUUUACAAUGUCAGACUGCCAUGUUCAAGUUUUAAUUUCCUCAUAGAGUGUAUUUACAGAUGCCCUUUUUUGUACUUUUUUUUUUAAUUGUGAUCUAUUUUGG` is recorded as 1.05.
Under “RBNS enrichment (R)”, `AAGCCCAUUCCGGGAUGGGUGGCGAGCACAGGGUGCAUAAGCAAGCUGUUCUUCCCAGUCGGUAGGGGAGUGACCCUCUAGGACAGGAAGCUGGGCUGGCCCAGGCCAGU` is recorded as 0.289.
Under “RBNS enrichment (R)”, `AUGGCCACUGAGUAGCCCCAGAGGUCGCACUCCGCAGGAGGACUGAGGCCAUGUGCCAUUCUCCCGGGCCCAGCGCCCGGCCGUCACCCCACCCGAUGACCUGCAUGAAG` is recorded as 1.84.
Under “RBNS enrichment (R)”, `CCACCAGAACAAAACCUGUUAAUUCAGCUUGACUUCUCAUAUGUGUUCUGUGUUCAAGCUCCUGUGGGCAACUCAAUUGUUUUAAGAAAACUCUAUUUCUGUUCAUAUUA` is recorded as 0.46.
For `GAUGAAAAUCCACAGCACAGACCUCUACCGUGUUUCUCUUCCAUCCCUAAACCACUUCCUUAAAAUGUUUGGAUUUGCAAAGCCAAUUUGGGGCCUGUGGAGCCUGGGGU`, “RBNS enrichment (R)” read 0.452.
For `CUUUCCUUCUCAGAGCCUCCUGAACCCCUGGGUAGGGCCUCCCCAUGUACCCUGCCGACUGACUGAGGCACACAACUUCCCUGGCUUAUCAGAAGAUUCAUUUACAGGGA`, “RBNS enrichment (R)” read 0.608.
`ACACAUAGAUCGGAGUGAACAGAGAGCUUUGCCUCAAUCAUUUUUCUGGCUUUCCUCUGCAGCCAGGGAAGUGGACAGGAAACUGGACCUUAGGGACACCCUGCAGAGUA` — result for “RBNS enrichment (R)”: 0.472.

Series 3 — method: DHFR PCA, deep sequencing; sample: yeast; together with: (+)-ABA 710 µM; baseline: wild-type fitted maximum; direction: higher = stronger binding
Target: ABI1, truncated, D143A, DHFR fusion (Arabidopsis thaliana)
Notes: methotrexate growth selection, single substitutions
Parent: PYL1, truncated, DHFR fusion (Arabidopsis thaliana); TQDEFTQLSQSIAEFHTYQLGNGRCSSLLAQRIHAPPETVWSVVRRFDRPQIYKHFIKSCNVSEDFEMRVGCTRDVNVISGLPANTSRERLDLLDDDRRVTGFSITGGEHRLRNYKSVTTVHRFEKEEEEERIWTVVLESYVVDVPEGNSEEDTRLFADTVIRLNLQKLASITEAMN; partner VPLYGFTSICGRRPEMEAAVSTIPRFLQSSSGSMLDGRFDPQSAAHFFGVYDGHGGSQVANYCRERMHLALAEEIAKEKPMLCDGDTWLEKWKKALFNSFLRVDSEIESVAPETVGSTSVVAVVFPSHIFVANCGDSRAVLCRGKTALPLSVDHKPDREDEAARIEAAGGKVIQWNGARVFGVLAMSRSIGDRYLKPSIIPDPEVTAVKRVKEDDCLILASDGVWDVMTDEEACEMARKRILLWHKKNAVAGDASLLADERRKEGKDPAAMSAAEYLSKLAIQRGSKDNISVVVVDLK
`Q7Y` — result for “relative binding score”: 104%.
`S59D`: “relative binding score” 101%.
For `D96I`, “relative binding score” read 62.8%.
For `V137F`, “relative binding score” read -0.283%.
Under “relative binding score”, `S171A` is recorded as 102%.
`H55E`: “relative binding score” 102%.
`V121P` — result for “relative binding score”: 2.95%.
Under “relative binding score”, `R113T` is recorded as 103%.
`E89D`: “relative binding score” 89.7%.
Under “relative binding score”, `W41G` is recorded as -28.5%.
`L138C`: “relative binding score” 88.5%.
`T173V` — result for “relative binding score”: 97.8%.
`V142I`: “relative binding score” 94.2%.
Under “relative binding score”, `R155D` is recorded as -5.2%.
For `Q31P`, “relative binding score” read -8.7%.
`N85K` — result for “relative binding score”: 107%.
`W41L`: “relative binding score” -2.21%.
`T86G`: “relative binding score” 99.7%.

Series 4 — cell line: yeast with cyclin B3-Cln2 chimera; read-out: cell growth; mode: binder; method: competitive growth deep sequencing; molecule type: peptide; concentration: concentration not given; notes: peptide tiling library; direction: direction not given
Under “growth enrichment score”, `ALTMEALEDPSPELME` is recorded as 1.26.
Under “growth enrichment score”, `VKRLNFRSEEME` is recorded as 0.293.
`PARRRLRLSVDEVSSP` — result for “growth enrichment score”: -0.294.
Under “growth enrichment score”, `PLRKAKRARLCSSSSS` is recorded as 0.285.
`RRVLCFDS` — result for “growth enrichment score”: 0.148.
`LRRQLSFSED`: “growth enrichment score” -0.904.
`NARRSLNFGGSTGT`: “growth enrichment score” -0.349.
For `RKLHFEDEVT`, “growth enrichment score” read -0.107.
`KRCATPVIIDEILPSK` — result for “growth enrichment score”: 1.26.
For `SSEVARHLLFQSHM`, “growth enrichment score” read -0.301.
`EPRNLLSLFEDTLDPT` — result for “growth enrichment score”: 0.319.

Some of these lines once more (series 4):
For `SSEVARHLLFQSHM`, “growth enrichment score” read -0.301.
`KRCATPVIIDEILPSK` — result for “growth enrichment score”: 1.26.
Under “growth enrichment score”, `PLRKAKRARLCSSSSS` is recorded as 0.285.
`PARRRLRLSVDEVSSP` — result for “growth enrichment score”: -0.294.
Under “growth enrichment score”, `ALTMEALEDPSPELME` is recorded as 1.26.
Under “growth enrichment score”, `VKRLNFRSEEME` is recorded as 0.293.
For `RKLHFEDEVT`, “growth enrichment score” read -0.107.
`EPRNLLSLFEDTLDPT` — result for “growth enrichment score”: 0.319.
`NARRSLNFGGSTGT`: “growth enrichment score” -0.349.
`RRVLCFDS` — result for “growth enrichment score”: 0.148.
